Assay results collected from several papers.
Every numbered part comes from another study and shows a few of its results, in no order. Substitutions count along the parent as printed.

Block 1
Target: CCNB2, cyclin fold, Cln2 fusion (human)
Method: yeast growth competition, sequencing
Matrix: yeast
Setting: weak parent motif
Reference: not given
Direction: higher = stronger binding
Parent: SCAPER docking peptide (human); SNARRSLNFGGST
| Variant | normalised enrichment score |
| --- | --- |
| SNARRSFNFGGST [L7F] | -0.0812 |
| RNARRSLNFGGST [S1R] | 0.204 |
| SNARRSLEFGGST [N8E] | -0.0859 |
| SNARRILNFGGST [S6I] | 0.332 |
| SNARRSLNFGGMT [S12M] | -0.65 |
| SNARRSLNFGGSG [T13G] | 0.216 |
| SNAYRSLNFGGST [R4Y] | -0.219 |
| SNASRSLNFGGST [R4S] | -0.238 |
| SNARRSLNFGPST [G11P] | -0.0889 |
| SNARRSLAFGGST [N8A] | -0.00825 |
| SNARRLLNFGGST [S6L] | 0.523 |
| SNAQRSLNFGGST [R4Q] | -0.55 |
| SNATRSLNFGGST [R4T] | 0.19 |

Block 2
Target: Phosphate system positive regulatory protein PHO4, full length, GST-tagged (PHO4, Saccharomyces cerevisiae, UniProt P07270, residues 1-312)
Method: competition protein-binding microarray
Molecule type: double-stranded DNA, one strand shown
Matrix: in vitro
Concentration: 2 µM
Setting: whole 60-bp probe, lowest competitor level
With: Cbf1 competitor, 0.05 µM
Direction: higher = stronger binding
Constant ends, left off below: … GTCTTGATTCGCTTGACGCTGCTG
Construct (chain): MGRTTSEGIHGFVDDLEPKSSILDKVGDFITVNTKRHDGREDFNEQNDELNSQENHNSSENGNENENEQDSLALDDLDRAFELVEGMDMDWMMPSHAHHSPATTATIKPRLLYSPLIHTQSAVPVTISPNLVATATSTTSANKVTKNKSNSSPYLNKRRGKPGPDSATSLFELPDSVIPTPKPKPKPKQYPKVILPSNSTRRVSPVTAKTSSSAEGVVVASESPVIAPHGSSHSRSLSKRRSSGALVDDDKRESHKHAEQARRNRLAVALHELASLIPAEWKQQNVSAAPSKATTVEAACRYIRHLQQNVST
| Oligonucleotide | fluorescence intensity [a.u.] |
| --- | --- |
| CCAGATGCTGATTTGCACGTGTTGGGATCATATTCT | 19600 |
| GTCTTGTCTCATTGACCGGTGGGTGTCCCCACTTCA | 4000 |
| CGTCCTAGTGATTGTCCGGTGGGTGCCATGAGGAAG | 6300 |
| GCTTGTGAACAGCGTCACAGATCCAGTTGTAACGAG | 3250 |
| TGAGGACATAATACCCACGTGAGTATGACTTTAAAA | 15100 |
| TGTCGTTTGGTTATTGTCGTGGGTATGCTTCTATGT | 7240 |
| ACACAATAAGTAAATATATTTTAAAAAAGTACTCCG | 3230 |
| GTCTAAATTATTCCGCACGTTTTTCGGTGTGGTACA | 14000 |
| GTCTTGTCTCATTGGCTGGTGGGTGTCCCCACTTCA | 4700 |
| CGTCCTAGTGATTGTCAAGTGGGTGCCATGAGGAAG | 6280 |
| CTTTCCCGATCTTGTCACTAGACTTTAGCACATTTG | 3740 |
| CTTTCCCGATCTTAACACGTGTTTTTAGCACATTTG | 17300 |
| CATACCCAACCTTGGGGAGTGGGTGAAGATATTTGT | 4840 |
| TTTTGAATCCCGTTACACGTGGAATCTTTTTGAATT | 13200 |

Block 3
Target: ABI1, truncated, D143A, DHFR fusion (Arabidopsis thaliana)
Method: DHFR PCA, deep sequencing
Matrix: yeast
Setting: methotrexate growth selection, single substitutions
With: (+)-ABA 0.39 µM
Reference: wild-type fitted maximum
Direction: higher = stronger binding
Parent: PYL1, truncated, DHFR fusion (Arabidopsis thaliana); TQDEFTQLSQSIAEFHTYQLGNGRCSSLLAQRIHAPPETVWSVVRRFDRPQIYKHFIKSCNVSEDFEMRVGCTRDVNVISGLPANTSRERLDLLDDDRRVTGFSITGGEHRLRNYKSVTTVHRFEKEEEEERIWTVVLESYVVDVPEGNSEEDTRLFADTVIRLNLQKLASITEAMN
| Variant | relative binding score |
| --- | --- |
| D159G | 5.04% |
| E129L | 30.4% |
| E139Y | 12.2% |
| Y53L | -3.25% |
| Q2W | 55% |
| T86E | 5.8% |
| A84P | 17.2% |
| P36F | 2.45% |

Single results of other studies
| Molecule | target | test | test system | conditions | how to read | measurement | result |
| --- | --- | --- | --- | --- | --- | --- | --- |
| PhoQ, residues 284 288 289 292 302 303 SLSVQF | PhoP, residues 12 14 15 18 19 QQAYL (Escherichia coli, UniProt P23836) | Sort-seq, measured: YFP reporter | E. coli | PhoQ-PhoP variant library, with: 10 µM Mg2+ | reference: high Mg2+ state, higher = stronger signaling | fold induction | 10.5 |
